Results pooled from the literature.
Lines come from different studies, so protocols differ. ± gives the spread as reported.
GSTO1: Glutathione S-transferase omega-1 (GSTO1, Homo sapiens, UniProt P78417)
Chain of UniProt P78417 (whole entry, looked up): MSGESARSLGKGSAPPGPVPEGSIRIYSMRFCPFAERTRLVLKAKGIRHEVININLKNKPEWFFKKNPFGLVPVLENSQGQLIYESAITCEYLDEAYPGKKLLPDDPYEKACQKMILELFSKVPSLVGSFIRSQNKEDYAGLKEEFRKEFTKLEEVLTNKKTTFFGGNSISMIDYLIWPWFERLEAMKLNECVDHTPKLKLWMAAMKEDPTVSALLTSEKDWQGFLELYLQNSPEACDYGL
GLO1: Lactoylglutathione lyase (GLO1, Homo sapiens, UniProt Q04760)
Chain of UniProt Q04760 (whole entry, looked up): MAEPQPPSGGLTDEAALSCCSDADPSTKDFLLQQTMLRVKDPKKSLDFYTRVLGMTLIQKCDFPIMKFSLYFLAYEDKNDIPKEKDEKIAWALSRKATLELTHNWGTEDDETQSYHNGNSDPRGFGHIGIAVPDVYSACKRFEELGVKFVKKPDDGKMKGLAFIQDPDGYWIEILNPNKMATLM
AGER: Advanced glycosylation end product-specific receptor (AGER, Homo sapiens, UniProt Q15109)
Chain of UniProt Q15109 (whole entry, looked up): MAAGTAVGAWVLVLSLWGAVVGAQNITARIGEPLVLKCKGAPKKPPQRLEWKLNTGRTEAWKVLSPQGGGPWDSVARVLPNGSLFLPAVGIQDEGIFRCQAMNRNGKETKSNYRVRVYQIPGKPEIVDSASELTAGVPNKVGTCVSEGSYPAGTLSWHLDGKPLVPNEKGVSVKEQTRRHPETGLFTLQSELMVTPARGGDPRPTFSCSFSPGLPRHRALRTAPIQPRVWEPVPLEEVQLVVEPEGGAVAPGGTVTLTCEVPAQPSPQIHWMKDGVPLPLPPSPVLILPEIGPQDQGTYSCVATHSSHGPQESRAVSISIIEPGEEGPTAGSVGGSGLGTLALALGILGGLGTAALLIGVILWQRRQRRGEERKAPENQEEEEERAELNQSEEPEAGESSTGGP
Succinate dehydrogenase complex: Succinate dehydrogenase complex (Sus scrofa, UniProt A5GZW8+D0VWV4+Q007T0+Q0QF01)
Chain of UniProt A5GZW8 (whole entry, looked up): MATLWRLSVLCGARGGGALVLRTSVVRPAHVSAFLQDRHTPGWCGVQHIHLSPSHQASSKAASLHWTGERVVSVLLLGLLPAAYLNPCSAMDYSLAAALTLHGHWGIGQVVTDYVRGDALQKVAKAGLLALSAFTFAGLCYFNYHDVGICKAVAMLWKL
Chain of UniProt Q0QF01 (whole entry, looked up): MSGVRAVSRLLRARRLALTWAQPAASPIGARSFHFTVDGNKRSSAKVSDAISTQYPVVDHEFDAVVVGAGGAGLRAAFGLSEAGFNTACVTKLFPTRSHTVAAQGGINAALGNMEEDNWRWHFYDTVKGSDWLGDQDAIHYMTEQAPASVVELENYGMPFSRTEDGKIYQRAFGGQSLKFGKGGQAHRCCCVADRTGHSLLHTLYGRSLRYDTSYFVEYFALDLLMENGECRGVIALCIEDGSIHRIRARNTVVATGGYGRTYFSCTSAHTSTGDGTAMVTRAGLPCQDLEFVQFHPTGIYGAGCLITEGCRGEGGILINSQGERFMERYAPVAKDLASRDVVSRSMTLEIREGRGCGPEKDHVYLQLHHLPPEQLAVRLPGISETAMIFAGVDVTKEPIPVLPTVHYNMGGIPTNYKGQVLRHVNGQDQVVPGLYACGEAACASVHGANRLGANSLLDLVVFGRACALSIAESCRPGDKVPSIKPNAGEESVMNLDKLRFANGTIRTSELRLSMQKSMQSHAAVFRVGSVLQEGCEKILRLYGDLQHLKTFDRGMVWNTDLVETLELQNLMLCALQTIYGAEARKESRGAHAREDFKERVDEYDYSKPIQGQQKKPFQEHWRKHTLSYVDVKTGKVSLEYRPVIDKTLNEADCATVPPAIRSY
Chain of UniProt D0VWV4 (whole entry, looked up): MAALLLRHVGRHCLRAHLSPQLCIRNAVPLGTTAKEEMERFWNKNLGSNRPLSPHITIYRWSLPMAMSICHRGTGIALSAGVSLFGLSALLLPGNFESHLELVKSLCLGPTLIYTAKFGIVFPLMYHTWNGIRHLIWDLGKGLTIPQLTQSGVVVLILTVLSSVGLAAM
Chain of UniProt Q007T0 (whole entry, looked up): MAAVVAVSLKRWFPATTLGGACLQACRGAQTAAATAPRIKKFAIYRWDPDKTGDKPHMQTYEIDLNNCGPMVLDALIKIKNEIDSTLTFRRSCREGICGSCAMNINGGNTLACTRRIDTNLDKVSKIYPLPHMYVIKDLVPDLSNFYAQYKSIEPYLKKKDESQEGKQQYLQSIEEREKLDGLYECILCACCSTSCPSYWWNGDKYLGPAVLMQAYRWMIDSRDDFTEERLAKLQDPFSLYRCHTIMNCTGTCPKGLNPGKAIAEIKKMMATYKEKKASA
Chain of UniProt O94762 (whole entry, looked up): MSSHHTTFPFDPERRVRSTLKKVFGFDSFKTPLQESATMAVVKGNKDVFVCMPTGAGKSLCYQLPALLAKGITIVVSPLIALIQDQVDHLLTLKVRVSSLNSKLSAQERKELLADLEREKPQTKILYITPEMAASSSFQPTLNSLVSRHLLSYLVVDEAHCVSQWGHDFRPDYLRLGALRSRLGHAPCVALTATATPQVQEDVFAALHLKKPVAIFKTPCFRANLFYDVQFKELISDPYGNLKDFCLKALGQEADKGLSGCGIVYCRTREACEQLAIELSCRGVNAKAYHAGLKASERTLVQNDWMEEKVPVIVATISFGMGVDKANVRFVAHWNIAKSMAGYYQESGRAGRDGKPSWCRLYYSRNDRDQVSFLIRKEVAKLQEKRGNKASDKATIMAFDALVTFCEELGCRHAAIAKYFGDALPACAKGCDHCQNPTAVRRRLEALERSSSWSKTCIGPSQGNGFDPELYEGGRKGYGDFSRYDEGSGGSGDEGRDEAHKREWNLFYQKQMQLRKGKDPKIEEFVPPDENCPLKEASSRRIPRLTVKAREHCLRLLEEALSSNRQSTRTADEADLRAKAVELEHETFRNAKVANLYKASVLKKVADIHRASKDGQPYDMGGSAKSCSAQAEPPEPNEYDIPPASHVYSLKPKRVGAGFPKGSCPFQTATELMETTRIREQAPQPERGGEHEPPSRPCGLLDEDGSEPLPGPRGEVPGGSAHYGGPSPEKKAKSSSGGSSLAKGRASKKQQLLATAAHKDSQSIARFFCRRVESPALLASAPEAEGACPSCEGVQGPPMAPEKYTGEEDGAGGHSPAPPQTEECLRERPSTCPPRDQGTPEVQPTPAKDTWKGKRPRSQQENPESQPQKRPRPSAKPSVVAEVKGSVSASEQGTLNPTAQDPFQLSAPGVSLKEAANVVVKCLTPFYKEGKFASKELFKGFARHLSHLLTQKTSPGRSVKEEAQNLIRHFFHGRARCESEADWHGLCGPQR
Chain of UniProt Q99873 (whole entry, looked up): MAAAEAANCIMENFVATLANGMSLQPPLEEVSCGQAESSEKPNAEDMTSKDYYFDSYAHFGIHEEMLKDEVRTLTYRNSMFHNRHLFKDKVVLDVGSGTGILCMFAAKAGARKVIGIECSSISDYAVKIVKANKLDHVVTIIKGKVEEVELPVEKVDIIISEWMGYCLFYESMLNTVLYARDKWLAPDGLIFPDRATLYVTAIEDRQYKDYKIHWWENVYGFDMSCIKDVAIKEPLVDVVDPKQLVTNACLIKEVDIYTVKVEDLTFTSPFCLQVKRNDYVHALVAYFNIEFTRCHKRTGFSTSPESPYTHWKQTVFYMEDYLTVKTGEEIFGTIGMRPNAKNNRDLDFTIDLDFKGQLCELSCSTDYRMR
Chain of UniProt Q05097 (whole entry, looked up): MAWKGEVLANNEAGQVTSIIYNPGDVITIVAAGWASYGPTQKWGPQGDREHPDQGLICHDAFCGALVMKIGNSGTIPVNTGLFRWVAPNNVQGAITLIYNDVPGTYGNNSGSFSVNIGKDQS

`O=C(CCl)N(CCNC(=O)C(F)(F)F)c1ccc(Cl)cc1` gave an inhibition of 95% (GSTO1; probe labelling, gel-based competitive ABPP; MDA-MB-435 soluble proteome; 100 nM, together with: SE-Rh probe).
`O=C(O[C@H]1Cc2c(O)cc(O)cc2O[C@@H]1c1ccc(O)c(O)c1)c1cc(O)c(O)c(O)c1` gave an inhibition of 89.7% (maltase, rat; enzyme activity, inhibitor; rat intestinal brush border vesicles; 10 µM).
For `C#CCCCCNC(=O)C(c1ccccn1)N(C(=O)CCl)c1cccc(F)c1` (racemic), the inhibition was 80% (GSTO1; probe labelling, gel-based competitive ABPP; MDA-MB-435 soluble proteome; 100 nM, together with: SE-Rh probe).
With `NS(=O)(=O)c1ccc(/N=N/c2cc3ccccc3c(C=O)c2O)cc1` the inhibition was 48.8% (GLO1; enzyme activity, inhibitor; 25 µM).
For `O=C(Nc1cc(Cl)ccc1O)c1nn2c(C(F)(F)F)cc(-c3cc(Br)cs3)nc2c1Br`, inhibition read “inhibited” (Hepatitis A virus cellular receptor 2, part phosphatidylserine interaction (Homo sapiens, UniProt Q8TDQ0); phosphatidylserine binding, flow cytometry; apoptotic Jurkat; 2.5 µM).
`COc1ccccc1-c1ccncc1C(=O)Nc1nnc(OCc2ccc(Cl)cc2)s1`: inhibition “no inhibition” (RECQL5 (Homo sapiens, UniProt O94762); ATPase activity, inhibitor, ADP-Glo; up to 30 µM).
With `Nc1nc2cc(CC[C@H]3C[C@@H](n4ccc5c(N)ncnc54)[C@H](O)[C@@H]3O)ccc2cc1Br` the inhibition was < 15% (PRMT1 (Homo sapiens, UniProt Q99873); enzyme activity, inhibitor; 10 µM).
For `COC(=O)CCSc1nc2n(n1)C(c1cccc(OC)c1)C(C(=O)Nc1cncc(C)c1)=C(C)N2` (stereo not drawn), the inhibition was 74.8% (MTOR (Homo sapiens, UniProt P42345); enzyme activity, inhibitor, TR-FRET; 0.1 µM).
`COc1ccc(/C=C/C(=O)N2CCN(c3ccccc3)CC2)cc1` has an inhibition of 15.1 ± 5.4% (Agaricus bisporus tyrosinase; diphenolase activity; 500 µM, together with: L-DOPA substrate).
`CC(=O)c1ccc(O)c(O)c1` has an inhibition of 10% (lecA (Pseudomonas aeruginosa, UniProt Q05097); ligand displacement, FP; 4 mM).
The inhibition of `O=C(NCc1ccccc1)c1cc2ccc(Cl)cc2s1` is reported as 25% (AGER; binding to AGE-BSA, competitive ELISA; 100 µM, 60 min).
For `O=C(Nc1ccccc1Nc1ccccc1)c1cccnc1Br`, the inhibition was 38.1% (Succinate dehydrogenase complex; enzyme activity, double-antibody sandwich ELISA; 8 µM).
`c1ccc(-n2cc(-c3nc4ccc5[nH]ncc5c4c4c3CCCC4)cn2)cc1` gave an inhibition of 9% (FLT3 (Homo sapiens, UniProt P36888, ITD); enzyme activity, inhibitor, ADP detection; 0.1 µM).
The inhibition of `O=C(Nc1ccc(F)cc1)c1cc2ccc(Cl)cc2s1` is reported as 0% (AGER; binding to AGE-BSA, competitive ELISA; 100 µM, 60 min).
`O=C(Nc1ccccc1Nc1ccccc1)c1cccnc1C(F)(F)F` has an inhibition of 45.4% (Succinate dehydrogenase complex; enzyme activity, double-antibody sandwich ELISA; 8 µM).
For `O=C(NC1CCCCC1)C(c1cccnc1)N(C(=O)CCl)c1ccc(F)cc1` (racemic), the inhibition was 95% (GSTO1; competitive ABPP; MDA-MB-435; 1 µM, 12 h, 10% serum).
`NS(=O)(=O)c1ccc(/N=N/c2cc3ccc(=O)oc3cc2O)cc1` has an inhibition of 44.4% (GLO1; enzyme activity, inhibitor; 25 µM).
For `CN1CC[C@H](c2c(O)cc(O)c3c(=O)cc(/C=C/c4c(Cl)cccc4Cl)oc23)[C@H](O)C1`, the inhibition was 97 ± 1.2% (Cyclin-dependent kinase 9, with cyclin T1 (CDK9, Homo sapiens, UniProt P50750); enzyme activity, inhibitor; 500 nM).

Excerpt of the above:
With `Nc1nc2cc(CC[C@H]3C[C@@H](n4ccc5c(N)ncnc54)[C@H](O)[C@@H]3O)ccc2cc1Br` the inhibition was < 15% (PRMT1 (Homo sapiens, UniProt Q99873); enzyme activity, inhibitor; 10 µM).
For `COC(=O)CCSc1nc2n(n1)C(c1cccc(OC)c1)C(C(=O)Nc1cncc(C)c1)=C(C)N2` (stereo not drawn), the inhibition was 74.8% (MTOR (Homo sapiens, UniProt P42345); enzyme activity, inhibitor, TR-FRET; 0.1 µM).
